Measured values gathered from unrelated publications.
Parts stem from different laboratories: compare values within a part only.
UniProt P53667, sequence (whole entry, looked up): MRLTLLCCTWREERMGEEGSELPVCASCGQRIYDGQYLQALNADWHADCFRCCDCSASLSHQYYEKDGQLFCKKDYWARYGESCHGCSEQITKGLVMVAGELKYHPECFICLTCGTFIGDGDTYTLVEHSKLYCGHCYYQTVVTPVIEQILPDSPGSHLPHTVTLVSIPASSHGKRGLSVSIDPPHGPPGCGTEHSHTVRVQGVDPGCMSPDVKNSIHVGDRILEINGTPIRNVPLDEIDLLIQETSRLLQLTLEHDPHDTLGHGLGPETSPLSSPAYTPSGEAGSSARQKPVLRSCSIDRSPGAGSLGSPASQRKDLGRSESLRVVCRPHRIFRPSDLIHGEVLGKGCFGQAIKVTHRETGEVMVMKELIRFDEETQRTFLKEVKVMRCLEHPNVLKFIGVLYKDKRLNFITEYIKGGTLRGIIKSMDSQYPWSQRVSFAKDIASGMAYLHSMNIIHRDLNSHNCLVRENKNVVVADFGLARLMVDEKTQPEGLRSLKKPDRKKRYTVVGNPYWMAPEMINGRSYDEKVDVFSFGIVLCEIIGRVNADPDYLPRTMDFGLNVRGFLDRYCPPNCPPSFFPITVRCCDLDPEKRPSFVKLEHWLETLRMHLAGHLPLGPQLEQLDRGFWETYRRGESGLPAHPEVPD
UniProt P27037, sequence (whole entry, looked up): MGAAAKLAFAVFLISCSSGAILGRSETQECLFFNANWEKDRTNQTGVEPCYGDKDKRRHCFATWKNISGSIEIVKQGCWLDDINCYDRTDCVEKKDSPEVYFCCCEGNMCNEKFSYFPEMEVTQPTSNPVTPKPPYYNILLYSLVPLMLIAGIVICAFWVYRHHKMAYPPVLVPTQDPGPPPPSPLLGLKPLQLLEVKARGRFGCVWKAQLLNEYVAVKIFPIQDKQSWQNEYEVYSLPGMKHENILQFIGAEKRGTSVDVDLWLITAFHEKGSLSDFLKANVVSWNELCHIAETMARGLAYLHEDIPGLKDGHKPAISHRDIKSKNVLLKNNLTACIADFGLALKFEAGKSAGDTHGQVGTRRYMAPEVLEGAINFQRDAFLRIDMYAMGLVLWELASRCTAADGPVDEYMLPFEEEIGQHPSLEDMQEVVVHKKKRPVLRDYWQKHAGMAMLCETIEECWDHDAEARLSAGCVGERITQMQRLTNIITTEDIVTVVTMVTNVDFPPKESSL
UniProt O14757, sequence (whole entry, looked up): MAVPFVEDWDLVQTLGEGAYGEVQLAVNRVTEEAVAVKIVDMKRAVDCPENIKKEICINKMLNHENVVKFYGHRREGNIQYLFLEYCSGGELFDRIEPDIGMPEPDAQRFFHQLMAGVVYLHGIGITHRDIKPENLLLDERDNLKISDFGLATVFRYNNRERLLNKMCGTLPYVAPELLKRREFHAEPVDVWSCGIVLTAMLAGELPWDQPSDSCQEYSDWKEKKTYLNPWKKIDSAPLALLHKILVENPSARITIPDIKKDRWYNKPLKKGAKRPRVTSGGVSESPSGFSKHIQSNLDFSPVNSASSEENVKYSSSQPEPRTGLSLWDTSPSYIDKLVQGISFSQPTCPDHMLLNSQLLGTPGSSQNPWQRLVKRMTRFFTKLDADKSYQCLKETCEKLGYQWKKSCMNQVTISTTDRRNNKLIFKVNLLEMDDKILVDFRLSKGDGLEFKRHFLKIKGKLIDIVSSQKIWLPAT
UniProt Q15831, sequence (whole entry, looked up): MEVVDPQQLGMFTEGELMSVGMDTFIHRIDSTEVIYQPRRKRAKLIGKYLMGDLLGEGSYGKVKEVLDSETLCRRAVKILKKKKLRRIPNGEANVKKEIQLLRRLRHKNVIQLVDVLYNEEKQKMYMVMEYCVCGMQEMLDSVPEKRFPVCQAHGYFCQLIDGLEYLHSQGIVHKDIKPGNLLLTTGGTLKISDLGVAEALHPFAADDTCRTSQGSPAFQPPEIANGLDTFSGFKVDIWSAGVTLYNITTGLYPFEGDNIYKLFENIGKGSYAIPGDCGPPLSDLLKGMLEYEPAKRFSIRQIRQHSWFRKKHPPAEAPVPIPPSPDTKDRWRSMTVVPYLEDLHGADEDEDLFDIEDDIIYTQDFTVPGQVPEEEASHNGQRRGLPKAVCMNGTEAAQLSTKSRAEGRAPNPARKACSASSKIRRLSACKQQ

Study 1 — read-out: AlphaScreen signal; method: AlphaScreen counter screen; medium: His6 peptide without bromodomain; concentration: 50 µM; setting: assay interference check; measurement: inhibition
NC(=O)Nc1sc(-c2ccccc2)cc1C(N)=O: 12.9%
CC(c1ccccc1)n1c(=O)[nH]c2ncc(-c3cccnc3)nc21 (centres unmarked): 18.8%
COc1cccc(-c2nc(NCCCN(C)C)c3ccccc3n2)c1O: 51.8%
CCOc1cc2ncnc(Nc3cccc(Br)c3)c2cc1OCC: 30.7%

Study 2 — cell line: A-375; concentration: 100 µM; time: 36 h; measurement: viability
Oc1c(I)cc(Cl)c2cccnc12: 11.2%
CCOC(=O)N[C@@H]1CC[C@@H]2[C@@H](C1)C[C@H]1C(=O)O[C@H](C)[C@H]1[C@H]2/C=C/c1ccc(-c2cccc(F)c2)cn1: 102%
CCCCCCCCN[C@@H](C)[C@H](O)c1ccc(SC(C)C)cc1 (racemic): 0.204%
CC[C@H]1OC(=O)[C@@](C)(F)C(=O)[C@H](C)[C@@H](O[C@@H]2O[C@H](C)C[C@H](N(C)C)[C@H]2O)[C@](C)(OC)C[C@@H](C)C(=O)[C@H](C)[C@H]2N(CCCCn3cc(-c4cccc(N)c4)nn3)C(=O)O[C@]12C: 1.32%
COC(=O)C1=C(C)NC(C)=C(C(=O)OC(C)C)C1c1cccc2nonc12 (centres unmarked): 14.9%

Study 3 — read-out: cell-free assay; method: competition with immobilised ligand; concentration: 1 µM; measurement: remaining binding
SMILES: CCC(=O)N[C@@H]1CC[C@H](C(=O)N(C)c2ccc(-c3nc4ccccc4o3)cc2)C1
CDC42BPB (Homo sapiens, UniProt Q9Y5S2): 100%
LIM domain kinase 1 (LIMK1, Homo sapiens, UniProt P53667): 100%
ACVR2A (Homo sapiens, UniProt P27037): 100%
TIE1 (Homo sapiens, UniProt P35590): 95%
CDK4 (Homo sapiens, UniProt P11802): 97%
CHEK1 (Homo sapiens, UniProt O14757): 100%
RET (Homo sapiens, UniProt P07949): 93%
TSSK1B (Homo sapiens, UniProt Q9BXA7): 76%
CDK13 (Homo sapiens, UniProt Q14004): 100%
FLT3 (Homo sapiens, UniProt P36888, N841I): 100%
CAMK1D (Homo sapiens, UniProt Q8IU85): 100%
GRK3 (Homo sapiens, UniProt P35626): 100%
KIT (Homo sapiens, UniProt P10721): 100%
STK11 (Homo sapiens, UniProt Q15831): 51%
CAMK2A (Homo sapiens, UniProt Q9UQM7): 100%
FLT3 (Homo sapiens, UniProt P36888, D835H): 100%
PIM3 (Homo sapiens, UniProt Q86V86): 96%
BUB1 (Homo sapiens, UniProt O43683): 89%

Study 4 — species: mouse; medium: microsomes or S9; concentration: 2 µM; time: 0.5 h; measurement: remaining compound
Cc1c(C#N)c(NS(=O)(=O)CCCCF)n2ccccc12: 10.9%
Cc1noc(C)c1CCNc1ncnc2onc(-c3cccc(Cl)c3)c12: 88.4%
Cn1c(=O)n(Cc2ccc(-c3ccccc3C#N)cc2)c2ccccc21: 0.121%
CS(=O)(=O)CCCC(=O)N(CC(=O)O)C1CCCCC1: 86.1%
CC(C)c1ccc(CCCNS(C)(=O)=O)cc1: 66.2%

Study 5 — cell line: Huh-7; concentration: 10 µM; time: 24 h; measurement: viability
CCN[C@@H]1C[C@H](N)[C@@H](O[C@H]2OC(CN)=CC[C@H]2N)[C@H](O)[C@H]1O[C@H]1OC[C@](C)(O)[C@H](NC)[C@H]1O: 100%
CC(=O)CCCCn1c(=O)c2c(ncn2C)n(C)c1=O: 102%
C#C[C@]1(O)CC[C@H]2[C@@H]3CCc4cc(OC)ccc4[C@H]3CC[C@@]21C: 95.1%
CC1(C)O[C@@H]2[C@@H](CO[C@@]3(COS(N)(=O)=O)OC(C)(C)O[C@@H]23)O1: 100%

Mixed results — read-out: enzyme activity; mode: inhibitor; concentration: 77 µM; relative to: untreated
Target: DNA polymerase theta, ATPase domain (POLQ, Homo sapiens, UniProt O75417)
UniProt O75417, sequence (whole entry, unmodified, looked up): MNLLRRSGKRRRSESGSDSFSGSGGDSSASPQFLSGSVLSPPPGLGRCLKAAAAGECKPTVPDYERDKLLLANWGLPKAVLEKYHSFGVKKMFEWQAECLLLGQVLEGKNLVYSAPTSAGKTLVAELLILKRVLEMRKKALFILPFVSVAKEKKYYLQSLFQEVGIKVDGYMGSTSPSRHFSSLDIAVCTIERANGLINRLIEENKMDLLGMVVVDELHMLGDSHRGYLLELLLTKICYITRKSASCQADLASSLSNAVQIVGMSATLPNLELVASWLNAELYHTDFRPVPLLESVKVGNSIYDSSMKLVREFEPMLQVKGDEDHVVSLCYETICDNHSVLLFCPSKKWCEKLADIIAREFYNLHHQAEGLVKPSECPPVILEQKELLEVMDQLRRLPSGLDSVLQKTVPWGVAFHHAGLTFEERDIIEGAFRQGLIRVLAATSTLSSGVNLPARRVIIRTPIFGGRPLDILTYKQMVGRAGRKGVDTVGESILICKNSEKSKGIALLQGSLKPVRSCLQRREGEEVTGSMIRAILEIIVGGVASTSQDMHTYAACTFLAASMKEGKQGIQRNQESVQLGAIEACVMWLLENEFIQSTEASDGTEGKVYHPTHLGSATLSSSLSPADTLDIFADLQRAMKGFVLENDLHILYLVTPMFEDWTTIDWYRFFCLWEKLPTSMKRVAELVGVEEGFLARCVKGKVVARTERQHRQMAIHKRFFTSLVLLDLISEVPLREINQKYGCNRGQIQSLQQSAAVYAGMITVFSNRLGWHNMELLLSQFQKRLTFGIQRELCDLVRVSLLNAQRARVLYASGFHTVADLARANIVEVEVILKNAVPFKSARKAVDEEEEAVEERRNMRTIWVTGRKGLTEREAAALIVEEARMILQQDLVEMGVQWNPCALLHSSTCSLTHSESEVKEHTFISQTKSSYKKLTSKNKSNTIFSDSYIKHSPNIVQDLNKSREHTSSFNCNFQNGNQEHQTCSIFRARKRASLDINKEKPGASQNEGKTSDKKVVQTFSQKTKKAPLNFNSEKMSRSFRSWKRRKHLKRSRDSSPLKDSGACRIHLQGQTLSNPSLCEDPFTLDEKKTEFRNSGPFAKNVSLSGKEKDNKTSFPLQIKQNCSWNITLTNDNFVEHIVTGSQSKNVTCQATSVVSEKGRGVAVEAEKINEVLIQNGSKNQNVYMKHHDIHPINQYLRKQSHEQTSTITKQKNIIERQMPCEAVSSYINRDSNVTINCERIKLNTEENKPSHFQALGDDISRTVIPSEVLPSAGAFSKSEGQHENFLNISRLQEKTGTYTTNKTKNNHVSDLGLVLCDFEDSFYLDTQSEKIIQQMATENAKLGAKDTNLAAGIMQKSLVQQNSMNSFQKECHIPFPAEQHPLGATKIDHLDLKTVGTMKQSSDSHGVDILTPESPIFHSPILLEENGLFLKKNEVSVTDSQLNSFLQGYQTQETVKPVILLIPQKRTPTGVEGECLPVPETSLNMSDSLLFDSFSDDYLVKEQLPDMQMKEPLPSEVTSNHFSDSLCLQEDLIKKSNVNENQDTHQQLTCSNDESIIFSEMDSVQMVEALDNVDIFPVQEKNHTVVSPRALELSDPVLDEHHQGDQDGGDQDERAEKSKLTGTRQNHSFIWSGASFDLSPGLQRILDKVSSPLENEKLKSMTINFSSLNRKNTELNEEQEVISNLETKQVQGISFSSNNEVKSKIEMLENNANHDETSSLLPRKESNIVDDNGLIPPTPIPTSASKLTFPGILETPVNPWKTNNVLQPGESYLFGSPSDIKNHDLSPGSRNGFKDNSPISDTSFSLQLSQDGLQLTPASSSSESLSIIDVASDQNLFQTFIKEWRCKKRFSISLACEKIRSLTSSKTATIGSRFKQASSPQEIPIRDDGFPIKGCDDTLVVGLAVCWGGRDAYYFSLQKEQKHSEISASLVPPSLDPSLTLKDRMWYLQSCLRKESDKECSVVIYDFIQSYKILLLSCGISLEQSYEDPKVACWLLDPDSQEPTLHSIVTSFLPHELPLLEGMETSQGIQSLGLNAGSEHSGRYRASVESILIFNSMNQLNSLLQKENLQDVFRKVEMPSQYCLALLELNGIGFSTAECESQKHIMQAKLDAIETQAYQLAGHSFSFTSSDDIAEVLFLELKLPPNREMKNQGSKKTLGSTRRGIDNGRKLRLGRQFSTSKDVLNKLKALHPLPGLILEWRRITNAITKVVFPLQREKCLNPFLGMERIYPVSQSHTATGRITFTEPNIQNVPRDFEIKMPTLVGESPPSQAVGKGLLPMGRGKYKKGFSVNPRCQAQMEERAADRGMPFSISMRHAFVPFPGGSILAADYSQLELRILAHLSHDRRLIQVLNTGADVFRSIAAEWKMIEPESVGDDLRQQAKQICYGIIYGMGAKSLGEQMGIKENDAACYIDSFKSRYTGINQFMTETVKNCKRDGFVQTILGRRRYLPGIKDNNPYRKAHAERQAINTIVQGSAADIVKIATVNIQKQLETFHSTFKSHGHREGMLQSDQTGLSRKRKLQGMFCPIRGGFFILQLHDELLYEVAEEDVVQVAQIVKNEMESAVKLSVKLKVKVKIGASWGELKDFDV
Cc1cc(C(C#N)c2ccc(Cl)cc2)c(Cl)cc1NC(=O)c1cc(I)cc(I)c1O (centres unmarked) — remaining activity: 84.2%
NCCC1CCCC(CCN)N1 (centres unmarked) — remaining activity: 100%

Some of these lines once more (study 1):
NC(=O)Nc1sc(-c2ccccc2)cc1C(N)=O: 12.9%
CC(c1ccccc1)n1c(=O)[nH]c2ncc(-c3cccnc3)nc21 (centres unmarked): 18.8%
COc1cccc(-c2nc(NCCCN(C)C)c3ccccc3n2)c1O: 51.8%
CCOc1cc2ncnc(Nc3cccc(Br)c3)c2cc1OCC: 30.7%
